{"data": "Measured values gathered from unrelated publications", "note": "± gives the spread as reported.", "chain of UniProt P05177 (whole entry, looked up)": "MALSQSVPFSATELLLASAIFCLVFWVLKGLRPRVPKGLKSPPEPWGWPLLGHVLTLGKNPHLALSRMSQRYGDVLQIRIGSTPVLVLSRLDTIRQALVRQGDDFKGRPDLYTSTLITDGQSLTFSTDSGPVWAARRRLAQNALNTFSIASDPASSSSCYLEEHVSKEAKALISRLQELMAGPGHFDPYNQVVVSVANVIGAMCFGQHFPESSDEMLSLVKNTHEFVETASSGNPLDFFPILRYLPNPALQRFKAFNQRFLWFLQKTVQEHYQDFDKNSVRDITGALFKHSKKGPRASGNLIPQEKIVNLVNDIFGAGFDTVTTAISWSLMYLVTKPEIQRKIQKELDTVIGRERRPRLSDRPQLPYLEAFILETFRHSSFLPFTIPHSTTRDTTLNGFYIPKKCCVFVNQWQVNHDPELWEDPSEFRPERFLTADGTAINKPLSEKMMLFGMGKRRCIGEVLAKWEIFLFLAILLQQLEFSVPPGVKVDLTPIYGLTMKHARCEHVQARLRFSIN", "chain of UniProt P05181 (whole entry, looked up)": "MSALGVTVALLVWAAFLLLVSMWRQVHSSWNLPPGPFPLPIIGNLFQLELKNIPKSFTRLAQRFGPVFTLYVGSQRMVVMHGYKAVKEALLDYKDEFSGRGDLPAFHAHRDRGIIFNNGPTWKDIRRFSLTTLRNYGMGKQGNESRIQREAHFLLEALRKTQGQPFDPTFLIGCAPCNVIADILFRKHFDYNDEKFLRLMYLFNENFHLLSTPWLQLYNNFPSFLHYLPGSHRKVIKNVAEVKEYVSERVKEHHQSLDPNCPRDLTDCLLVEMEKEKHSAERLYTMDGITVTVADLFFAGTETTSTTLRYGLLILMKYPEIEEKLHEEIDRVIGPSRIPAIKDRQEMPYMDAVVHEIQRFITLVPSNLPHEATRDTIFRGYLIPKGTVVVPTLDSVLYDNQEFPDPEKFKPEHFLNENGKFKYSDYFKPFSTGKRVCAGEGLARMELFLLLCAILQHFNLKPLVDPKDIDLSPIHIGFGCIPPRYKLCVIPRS"}
{"Structure (SMILES)": "CCC(=O)N(C)c1ccc(Cl)c(Cl)c1", "tested on": "CHO-WBL", "conditions": "0.063 mg/mL, 3 h, without S9 activation", "measurement": "cells with multiple aberrations", "value": "0%"}
{"Structure (SMILES)": "N#C[C@@H]1CCCN1C(=O)CNC(=O)c1ccnc2ccc(OCCCN3CCN(C(=O)CCc4ccc5c(c4)CN4CCN6CC(=O)[O][68Ga-]([O]C(=O)C4)([O]5)[O]c4ccc(CCC(=O)N5CCN(CCCOc7ccc8nccc(C(=O)NCC(=O)N9CCC[C@H]9C#N)c8c7)CC5)cc4C6)CC3)cc12", "tested on": "U-87 MG tumour model", "system": "host not given, tumour", "conditions": "2 h, tumour-bearing", "measurement": "tracer uptake", "value": "33.1 %ID/g"}
{"Structure (SMILES)": "COc1ccc(C2OC(=O)c3ccc(-c4ccccc4)c(O)c32)c(OC)c1OC (centres unmarked)", "tested on": "Naegleria fowleri trophozoites", "test": "AlamarBlue", "system": "ATCC 30215", "conditions": "48 h, 37 °C", "scale": "baseline: J774A.1 CC50 over IC50 ATCC 30215", "measurement": "selectivity index", "value": "≥ 39.5"}
{"Structure (SMILES)": "[64Cu+2].c1cnc(CNCc2ccc(CN3CCCN4CCNCCCN(CC4)CC3)cc2)nc1", "tested on": "CXCR4", "system": "NOD/SCID mouse, U87 and U87-stb-CXCR4 xenografts, blood", "conditions": "iv, 240 min, ex vivo", "measurement": "tissue uptake", "value": "1.14 ± 0.29 %ID/g"}
{"Structure (SMILES)": "O=C(O)c1cc(Br)c(O)c(Br)c1", "tested on": "Cytochrome P450 2E1 (CYP2E1, Homo sapiens, UniProt P05181)", "test": "p-nitrophenol hydroxylation, inhibitor", "system": "baculosomes", "conditions": "additive 100 µM", "measurement": "Ki", "value": "5 µM"}
{"Structure (SMILES)": "COc1ccc(C2OC(=O)c3cc4c(c(O)c32)CCCC4)c(OC)c1OC (centres unmarked)", "tested on": "Naegleria fowleri trophozoites", "test": "AlamarBlue", "system": "ATCC 30808", "conditions": "48 h, 37 °C", "scale": "baseline: J774A.1 CC50 over IC50 ATCC 30808", "measurement": "selectivity index", "value": "≥ 1.49"}
{"Structure (SMILES)": "CC(=O)OC(CCl)Cn1cncc1[N+](=O)[O-] (centres unmarked)", "tested on": "Salmonella enterica serovar Typhimurium", "test": "Ames test", "system": "TA100", "conditions": "72 h", "measurement": "mutagenic potency", "value": "8.18 ± 0.15 revertants/µg"}
{"Structure (SMILES)": "[64Cu+2].c1ccc(CNCc2ccc(CN3CCCN4CCNCCCN(CC4)CC3)cc2)nc1", "tested on": "CXCR4", "system": "NOD/SCID mouse, U87 and U87-stb-CXCR4 xenografts, stomach", "conditions": "iv, 90 min, ex vivo, added: AMD3465 25 mg/kg sc before tracer", "measurement": "tissue uptake", "value": "1.77 ± 0.09 %ID/g"}
{"Structure (SMILES)": "CC1(C)CCC23COC4(C=CC5C6(C)CCC(O)C(C)(CO)C6CCC5(C)C4(C)CC2O)C3C1 (centres unmarked)", "tested on": "Caco-2 monolayer", "test": "Caco-2 bidirectional transport", "conditions": "10 µM, 3 h, 37 °C", "measurement": "recovery basolateral to apical", "value": "88.4%"}
{"Structure (SMILES)": "N=C(N)NCCC[C@@H]1NC(=O)[C@H](Cc2c[nH]c3ccccc23)NC(=O)[C@@H](CC2CCCCC2)NC(=O)[C@@H]2CCCN2C(=O)[C@@H](NC(=O)CCc2ccccc2)CCCNC1=O", "system": "C57BL/6J mouse, plasma spinal cord", "conditions": "oral, 1 mg/kg single dose", "measurement": "MRT(0-inf)", "value": "1.06 h"}
{"Structure (SMILES)": "COc1ccc(C2OC(=O)c3ccc(C(C)C)c(O)c32)cc1OC (centres unmarked)", "tested on": "Naegleria fowleri trophozoites", "test": "AlamarBlue", "system": "ATCC 30215", "conditions": "48 h, 37 °C", "scale": "baseline: J774A.1 CC50 over IC50 ATCC 30215", "measurement": "selectivity index", "value": "≥ 8.73"}
{"Structure (SMILES)": "C=CC(=O)Nc1cc(Nc2nccc(-c3cn(C)c4ccccc34)n2)c(OCC(F)(F)F)nc1N(C)CCN(C)C", "tested on": "Cytochrome P450 1A2 (CYP1A2, Homo sapiens, UniProt P05177)", "test": "enzyme activity, inhibitor", "system": "human, liver microsomes", "conditions": "10 µM", "measurement": "activity vs control", "value": "73.3%"}
{"Structure (SMILES)": "CC(=O)N[C@H](C(=O)N[C@H](C(=O)N[C@@H](CCCNC(=N)N)C(=O)N1Cc2ccccc2C[C@H]1C(=O)N[C@@H](Cc1ccccc1)C(N)=O)C1CCCCC1)C(C)C", "tested on": "human PBMC", "test": "Bio-Plex multiplex, refers to: PDGF-bb", "conditions": "250 µg/mL, 24 h", "measurement": "cytokine level", "value": "250 ± 255 pg/mL"}
{"Structure (SMILES)": "CC=C1C(OC2OC(CO)C(O)C(O)C2O)OC=C(C(=O)OC)C1CC(=O)OCC1OC(OCCc2ccc(O)cc2)C(O)C(O)C1O (centres unmarked)", "tested on": "mouse gut microbiota", "test": "anaerobic incubation", "system": "male Balb/c mice, intestinal contents, anaerobic medium", "conditions": "10 µg/mL, 30 min", "measurement": "metabolized fraction", "value": "88.1%"}
{"note": "Some of these lines once more:"}
{"Structure (SMILES)": "CC(=O)OC(CCl)Cn1cncc1[N+](=O)[O-] (centres unmarked)", "tested on": "Salmonella enterica serovar Typhimurium", "test": "Ames test", "system": "TA100", "conditions": "72 h", "measurement": "mutagenic potency", "value": "8.18 ± 0.15 revertants/µg"}
